Published values from different studies.
Parts stem from different laboratories: compare values within a part only. Substitutions count along the parent as printed.

Sample 1
Target: Sal-like protein 4, full length isoform A (SALL4, Homo sapiens, UniProt Q9UJQ4, residues 1-1053)
Chain of UniProt Q9UJQ4 (whole entry, looked up): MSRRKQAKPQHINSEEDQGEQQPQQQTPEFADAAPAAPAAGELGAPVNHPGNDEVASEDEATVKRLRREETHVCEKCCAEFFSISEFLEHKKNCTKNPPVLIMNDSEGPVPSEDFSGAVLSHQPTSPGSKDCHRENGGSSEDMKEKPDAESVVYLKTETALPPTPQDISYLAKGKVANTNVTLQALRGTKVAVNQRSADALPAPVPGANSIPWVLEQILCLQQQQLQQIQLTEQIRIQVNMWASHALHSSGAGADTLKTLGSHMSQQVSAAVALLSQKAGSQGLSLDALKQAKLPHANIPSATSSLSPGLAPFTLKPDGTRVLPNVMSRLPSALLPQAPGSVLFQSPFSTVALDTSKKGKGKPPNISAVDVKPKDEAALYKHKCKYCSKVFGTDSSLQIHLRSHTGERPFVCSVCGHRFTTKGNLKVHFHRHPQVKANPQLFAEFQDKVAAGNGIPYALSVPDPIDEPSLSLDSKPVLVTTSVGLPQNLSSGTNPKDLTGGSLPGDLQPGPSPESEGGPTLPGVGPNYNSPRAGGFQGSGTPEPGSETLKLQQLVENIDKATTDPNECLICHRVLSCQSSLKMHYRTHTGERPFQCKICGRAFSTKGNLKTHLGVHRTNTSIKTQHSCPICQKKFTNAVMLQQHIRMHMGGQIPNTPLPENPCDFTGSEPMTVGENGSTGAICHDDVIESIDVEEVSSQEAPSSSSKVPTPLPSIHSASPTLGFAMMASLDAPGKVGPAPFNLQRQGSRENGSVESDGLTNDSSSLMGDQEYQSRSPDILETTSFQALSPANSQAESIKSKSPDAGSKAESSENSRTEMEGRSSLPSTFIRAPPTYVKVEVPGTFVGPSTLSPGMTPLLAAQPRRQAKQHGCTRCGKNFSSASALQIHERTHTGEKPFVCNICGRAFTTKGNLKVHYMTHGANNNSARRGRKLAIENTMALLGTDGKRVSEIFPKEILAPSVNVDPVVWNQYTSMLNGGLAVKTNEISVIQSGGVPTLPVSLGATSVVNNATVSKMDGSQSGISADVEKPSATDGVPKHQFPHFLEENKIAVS
Method: universal PBM
Form: double-stranded DNA, one strand shown
Sample: in vitro
Concentration: 600 nM
Notes: 8-mer, flanks averaged, mean of replicates
Reading: higher = stronger binding
`CAACAGTC` gave an E-score of -0.00283.
For `CTGTCTTA`, the E-score was 0.106.
`AGTCGTTC` has an E-score of -0.0376.
`AGACCGAA` gave an E-score of -0.035.
With `GCCCCGAC` the E-score was -0.36.
The E-score of `TAGACTCA` is reported as 0.0597.
The E-score of `CAAGCAAG` is reported as -0.152.
For `GCTCGCTA`, the E-score was -0.215.
With `CTAGCTTA` the E-score was 0.0926.
The E-score of `CGTTCCCA` is reported as -0.118.
`ACCAGGAT` gave an E-score of -0.0815.
For `CTAGGGCA`, the E-score was -0.22.
`GCCAGTAC` has an E-score of -0.079.
For `AGGCACCG`, the E-score was -0.262.
The E-score of `AGCTTCCT` is reported as -0.00859.
With `GTGTTCTA` the E-score was 0.187.
With `CGAACACG` the E-score was -0.0206.

Sample 2
Target: RING finger protein unkempt homolog, zinc fingers 1-6, GST-SBP tag (UNK, Homo sapiens, UniProt Q9C0B0, residues 30-357)
Chain of UniProt Q9C0B0 (30-357, looked up): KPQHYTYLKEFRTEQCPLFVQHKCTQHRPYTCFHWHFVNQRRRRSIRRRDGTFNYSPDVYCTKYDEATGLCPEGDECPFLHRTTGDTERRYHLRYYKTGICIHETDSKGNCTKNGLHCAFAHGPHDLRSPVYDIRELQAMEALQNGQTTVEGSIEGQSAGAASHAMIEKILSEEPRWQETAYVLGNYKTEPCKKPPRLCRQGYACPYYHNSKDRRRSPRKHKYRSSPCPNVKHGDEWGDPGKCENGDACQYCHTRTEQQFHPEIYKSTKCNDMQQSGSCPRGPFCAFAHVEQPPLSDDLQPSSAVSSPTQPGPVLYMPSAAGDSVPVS
Method: RNA Bind-n-Seq
Form: RNA
Sample: in vitro
Concentration: not given
Notes: RNA with constant flanks, ends assumed
Relative to: input RNA pool
Reading: higher = stronger binding
Shared flanks, not repeated: GGGAGUUCUACAGUCCGACGAUC … CAACAGAGGAUUGAGCAUCA
`CAGAUUGGAAAGAUGAGAUAUGUCAGUGUUCGGGACUUCAAAGGAAAAAUUCUAAUUGAUAUCCGAGAAUAUUGGAUGGAUUCAGAAGGUGAAAUGAAACCAGGAAGAAAAGGUAUUUCU` gave a bound/input enrichment of 0.172 ratio.
`GGCCUUCGAGGAAGAGGCCCACCUCCUUCAUGGGCCUCUGAGCCUGAACGCCCAUCCAUUCUCCGUGCAUCAGAACUGAAGGAGCUUGAUAAAUUUGAUAACCUAGAUGCUGAAGCUGAU` has a bound/input enrichment of 0.177 ratio.
The bound/input enrichment of `AUCUUUAUCUCACAAGAUGAAAUACAGUCAUUUAUGGCUAAUAACCAGUCUUUCUACAGCAACCGAGAACAAUACCGACAGCAUCUGAAGGAGAAAUUUAAUAAAUACUGCCGCUUAAAU` is reported as 0.225 ratio.
For `CUCAGAGACGUGGCAUAUCAAUAUGUGAAAAAGGGGUCUCGAAUUUAUUUGGAAGGGAAAACCGACUAUGGUGAAUACAUGGAUAAAAAUAAUGUGAGGCGACAAGCAACAACAAUCAUA`, the bound/input enrichment was 0.253 ratio.
`CUCAACCAUCCAAAUGUAAUUAAAUACUAUGCAUCAUUCAUUGAGGAUAAUGAGCUGAACACCGUUUUGGAGUUAGCAGAUGCUGGUGACCUCUCCAGAAUGAUAAAGCACUUUAAGAAA` gave a bound/input enrichment of 0.192 ratio.
`UCUGAUGGUGACCAUCAAGUUCCAGCUCCUUCAGGAAACAAAGCAGCUCUUUUGGAUCAAAUCCGAGAGGGUGCUCAGCUGAAAAAAGUGGAACAGAAUAGCCGGCCCGUGUCCUGCUCA` gave a bound/input enrichment of 0.106 ratio.
With `AAUGCUGUUCCUUUGGGAACCACGGCCAAAGAAGAGAUGGAGCGGUUCUGGAAUAAGAAUACCGGUUCAAACCGUCCUCUGUCUCCCCACAUUACUAUCUACAGUUGGUCUCUUCCCAUG` the bound/input enrichment was 0.109 ratio.
With `ACAGGGAAUGGGCGGCGGCUCCACCUGGGGAUUCCUGAGGCCGUGUUUGUGGAAGAUGCCGAUUCCUUCAUGAAACAGCCUGGGAAUGAGACUGCAGAUACAGUAUUAAAGAAGCUGGAU` the bound/input enrichment was 0.128 ratio.

Sample 3
Target: CCNB2, cyclin fold, Cln2 fusion (human)
Method: yeast growth competition, sequencing
Sample: yeast
Notes: weak parent motif
Relative to: not given
Reading: higher = stronger binding
Parent: E2F1 docking peptide (human); PPVKRRLDLETDH; partner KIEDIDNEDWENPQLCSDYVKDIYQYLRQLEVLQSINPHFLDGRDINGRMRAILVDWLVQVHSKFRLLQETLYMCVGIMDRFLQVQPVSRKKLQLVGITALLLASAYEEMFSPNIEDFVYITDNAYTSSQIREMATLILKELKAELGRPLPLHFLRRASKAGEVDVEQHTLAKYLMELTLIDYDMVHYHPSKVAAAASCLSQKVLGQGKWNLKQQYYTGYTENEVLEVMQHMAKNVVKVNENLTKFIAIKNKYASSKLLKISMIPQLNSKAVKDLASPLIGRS
For `PPVKRRLDLEADH [T11A]`, “normalised enrichment score” read 0.487.
`PPVKRRCDLETDH [L7C]` — result for “normalised enrichment score”: 0.175.
`PPVKRRLDLETYH [D12Y]`: “normalised enrichment score” 1.02.
`PPVKRKLDLETDH [R6K]`: “normalised enrichment score” -0.0756.
`PNVKRRLDLETDH [P2N]` — result for “normalised enrichment score”: 0.286.
`PPRKRRLDLETDH [V3R]` — result for “normalised enrichment score”: 0.394.
`PPFKRRLDLETDH [V3F]` — result for “normalised enrichment score”: 0.429.
`PPVKRCLDLETDH [R6C]` — result for “normalised enrichment score”: -0.104.
For `GPVKRRLDLETDH [P1G]`, “normalised enrichment score” read 0.352.
`PPVKRRLILETDH [D8I]` — result for “normalised enrichment score”: 0.616.
`PPVKTRLDLETDH [R5T]`: “normalised enrichment score” -0.151.
Under “normalised enrichment score”, `PPVKYRLDLETDH [R5Y]` is recorded as 0.151.
`PPVKRRLDLETDV [H13V]` — result for “normalised enrichment score”: 0.606.
`PPVKRRLKLETDH [D8K]` — result for “normalised enrichment score”: 0.403.
`PPVKRRLDLWTDH [E10W]`: “normalised enrichment score” 0.575.
For `PPVPRRLDLETDH [K4P]`, “normalised enrichment score” read -0.236.
For `PDVKRRLDLETDH [P2D]`, “normalised enrichment score” read 0.245.
`PPVKRRLDLETDM [H13M]`: “normalised enrichment score” 0.586.

Sample 4
Target: Centromere-binding protein 1, full length, N-terminal tag (CBF1, Saccharomyces cerevisiae, UniProt P17106, residues 1-351)
Chain of UniProt P17106 (whole entry, looked up): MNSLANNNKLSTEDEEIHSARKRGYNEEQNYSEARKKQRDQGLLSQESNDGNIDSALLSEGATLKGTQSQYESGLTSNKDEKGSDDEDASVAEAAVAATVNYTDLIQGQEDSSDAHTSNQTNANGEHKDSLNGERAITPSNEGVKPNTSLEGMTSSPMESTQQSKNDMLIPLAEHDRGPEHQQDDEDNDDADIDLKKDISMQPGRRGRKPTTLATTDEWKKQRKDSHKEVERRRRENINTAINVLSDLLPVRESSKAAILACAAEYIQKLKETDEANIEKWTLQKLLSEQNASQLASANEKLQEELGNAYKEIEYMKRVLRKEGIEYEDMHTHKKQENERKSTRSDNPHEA
Method: protein-binding microarray
Form: double-stranded DNA, one strand shown
Sample: in vitro
Concentration: 0.8 µM
Notes: whole 60-bp probe, no competitor
Reading: higher = stronger binding
Shared flanks, not repeated: … GTCTTGATTCGCTTGACGCTGCTG
`TGTACGAAGCTATGTACCGTGCCTATAGTAGTTAGG` gave a fluorescence intensity of 528 a.u.
`CTATAATCTTTTCATGTGAGTAGTTTAGATAAATTC` gave a fluorescence intensity of 723 a.u.
The fluorescence intensity of `CTATGAATGCCGGGCCGCGTGGCGTCTGTAGCTTTC` is reported as 608 a.u.
With `CTATAAATTTGAAATCTCCTGTTGCAAAGGATTTTC` the fluorescence intensity was 480 a.u.
`GAAAGGTAACTACGTGACACGAACCAAGTCATCTAG` gave a fluorescence intensity of 791 a.u.
`CTATCTTCAGGATGGTACGTGCCACGGGACCATTTC` has a fluorescence intensity of 3270 a.u.
`CCTAACTACTATACCCATGCGCAATAGCTTCGTACA` gave a fluorescence intensity of 523 a.u.
With `GAATCCCTTTTTCAACAGTCACGTGCGCATCTCTAG` the fluorescence intensity was 15100 a.u.
With `CTAACATGACTACACCACGTTAATAGCGATCTGTTC` the fluorescence intensity was 573 a.u.
`GAAGTCACTCACACGCACGCTCATATCAGATGTTAG` has a fluorescence intensity of 622 a.u.
For `GAAGCGGTAATTCAACACGTGAATTTCAGCTATTAG`, the fluorescence intensity was 2830 a.u.
`CTACCTATATGGAGTCATGAGCATACATGGTGCTTC` has a fluorescence intensity of 611 a.u.
The fluorescence intensity of `GAACAGATCCAGCGAGGCACGTGCTCTTTCCACTAG` is reported as 12300 a.u.
With `CTATTAGTTTTTCATGTGGTAAAGGCAATGCCATTC` the fluorescence intensity was 547 a.u.
With `GAATAGTTCGGTGCTCGTGACAAACCTTTTTCCTAG` the fluorescence intensity was 1380 a.u.
`CTAGGAGTGCGTCTCCACGTCATCATCATCGTCTTC` gave a fluorescence intensity of 522 a.u.
The fluorescence intensity of `GAATAAAACACCCACTACATCAGCTCGATGATGTAG` is reported as 500 a.u.
The fluorescence intensity of `GAATCCTTTTTTCATCTGATTATATGCTTATATTAG` is reported as 520 a.u.
The fluorescence intensity of `GAAATGAATGAAGAGCTCATGCACAGGCATGTATAG` is reported as 507 a.u.

Single results of other studies
The fold induction of `PhoQ, residues 284 288 289 292 302 303 GLASVI` is reported as 2.56 (PhoP, residues 12 14 15 18 19 TPLRH (Escherichia coli, UniProt P23836); Sort-seq, measured: YFP reporter; E. coli; PhoQ-PhoP variant library, with: 10 µM Mg2+; relative to: high Mg2+ state, higher = stronger signaling).

Excerpt of the above (sample 3):
Under “normalised enrichment score”, `PPVKYRLDLETDH [R5Y]` is recorded as 0.151.
`PPVKRRCDLETDH [L7C]` — result for “normalised enrichment score”: 0.175.
`PPVKRKLDLETDH [R6K]`: “normalised enrichment score” -0.0756.
For `PPVKRRLDLEADH [T11A]`, “normalised enrichment score” read 0.487.
`PPVKRCLDLETDH [R6C]` — result for “normalised enrichment score”: -0.104.
`PPVKRRLDLETDM [H13M]`: “normalised enrichment score” 0.586.
`PPVKRRLDLETDV [H13V]` — result for “normalised enrichment score”: 0.606.
